Measured values of several laboratories.
Each line is one published result; not all experiments were run side by side.
Organism: Leishmania infantum

Compound | assay | test system | setting | IC50
O=C(Nc1ccc2c(c1)CN(c1ccc(F)c(F)c1)C2=O)N1CCN(c2ccc(Cl)cc2)CC1 | parasite growth, Giemsa stain | primary peritoneal mouse macrophages, MHOM/MA(BE)/67 amastigotes | 5 d | > 64 µM
CCOC(=O)c1cn(CC(c2c[nH]c3cc(Br)ccc23)c2c[nH]c3cc(Br)ccc23)c(C)c1C(=O)OC | viability, MTS | human clinical isolate promastigote | 72 h | 6.4 µM
CCOC(=O)c1csc(NN=Cc2ccccc2O)n1 | parasite growth |  | 72 h, promastigote | 290 µM
O=C(Nc1ccc2c(c1)CN(c1ccc(Cl)cc1)C2=O)N1CC[C@H](F)C1 | parasite growth, Giemsa stain | primary peritoneal mouse macrophages, MHOM/MA(BE)/67 amastigotes | 5 d | > 64 µM
O=[N+]([O-])/C(Br)=C/c1ccco1 | parasite growth |  | 72 h, promastigote | 1.7 µM
CCCCCc1cn(CCCCCCCCCCCOP(=O)([O-])OCC[N+](C)(C)C)nn1 | parasite growth, flow cytometry |  | 24 h, promastigote | > 200 µM
CCOC(=O)c1c(C(=O)OC)cn(CC(c2cn(C)c3ccccc23)c2cn(C)c3ccccc23)c1C | viability, MTS | human clinical isolate promastigote | 72 h | 7.2 µM
CCOC(=O)c1csc(NN=Cc2ccc(Cl)cc2)n1 | parasite growth |  | 72 h, promastigote | 108 µM
O=C(Nc1ccc2c(c1)CN(c1ccc(Cl)cc1)C2=O)N1CC[C@H](O)C1 | parasite growth, Giemsa stain | primary peritoneal mouse macrophages, MHOM/MA(BE)/67 amastigotes | 5 d | > 64 µM
NNc1n[nH]c(=O)c2ccccc12 | parasite growth, MTT |  | 72 h, promastigote | > 25 µM
O=C(Nc1ccc2c(c1)CN(c1ccc(Br)cc1)C2=O)N1CCN(c2ccc(F)cc2)CC1 | parasite growth, imaging |  | intracellular, amastigote | 20.3 µM
NNc1nnc(Cl)c2ccccc12 | parasite growth, MTT |  | 72 h, promastigote | > 25 µM
O=[N+]([O-])/C=C/c1ccco1 | parasite growth |  | 72 h, promastigote | 2.5 µM

For quick reference, copied from above:
Compound | assay | test system | setting | IC50
CCOC(=O)c1csc(NN=Cc2ccc(Cl)cc2)n1 | parasite growth |  | 72 h, promastigote | 108 µM
